Assay results gathered from unrelated publications.
± gives the spread as reported.
Organism: Plasmodium falciparum

SMILES | observed | technique | cell line | strain | time | EC50 [nM]
Cn1nc2c(=O)n(C3CC3)ncc2c1[C@](O)(c1cnc(C(F)(F)F)c(Cl)c1)C(F)(F)F | parasite growth | – | – | – | – | 3.5
Cc1cc(Nc2ccnc3ccc(-c4ccc(S(=O)(=O)N5CCOCC5)cc4)cc23)on1 | parasite growth | SYBR Green | – | TM91C235 | – | 2700
CC1(C)CCC(C(=O)NCc2nc(-c3ccc(C#N)cc3)cs2)CN1C(=O)COCCF (racemic) | – | SYBR Green growth | asexual blood-stage parasites | 3D7 | 72 h | 91 ± 32
CCN(c1ccc(C)cc1)c1ccc(NC(=O)CN(C)c2ccccc2N2CCCC2=O)cn1 | gametocyte viability | luciferase | – | stage II-III gametocytes | 48 h | 2
Cc1noc(C)c1Nc1ccnc2ccc(-c3ccc(S(=O)(=O)N4CCOCC4)cc3)cc12 | parasite growth | SYBR Green | – | D6 | – | > 20000
O=C(NCc1nc(-c2ccccc2)cs1)[C@H]1CCCN(C(=O)[C@@H]2CCCO2)C1 | – | SYBR Green growth | asexual blood-stage parasites | 3D7 | 72 h | > 5000
O=S(=O)(c1ccc(-c2ccc3nccc(Nc4ccncc4)c3c2)cc1)N1CCOCC1 | parasite growth | SYBR Green | – | W2 | – | 930
CCn1ccc2c([C@](O)(c3ccc(C(F)(F)F)nc3)C3CC3)n(C)nc2c1=O | parasite growth | – | – | 3D7 | – | 7.94
COc1ncc(Nc2ccnc3ccc(-c4ccc(S(=O)(=O)N5CCOCC5)cc4)cc23)cn1 | parasite growth | SYBR Green | – | W2 | – | 1600
CCn1cc(C2CC2)c2c(CN3CCC(F)(F)C(C)(C)C3)n(C)nc2c1=O | parasite growth | – | – | 3D7 | – | 15.8
CCc1nnc(Nc2ccnc3ccc(-c4ccc(S(=O)(=O)N5CCOCC5)cc4)cc23)s1 | parasite growth | SYBR Green | – | D6 | – | 890
COCC(=O)N1CCC[C@H](C(=O)NCc2nc(-c3ccccc3C)cs2)C1 | – | SYBR Green growth | asexual blood-stage parasites | 3D7 | 72 h | > 5000
CC[C@](N)(c1cnc(C(F)(F)F)c(Cl)c1)c1c2ccn(C3CC3)c(=O)c2nn1C | parasite growth | – | – | 3D7 | – | 2510
CN(C)CC(=O)N1CCC[C@H](C(=O)NCc2nc(-c3ccccc3)cs2)C1 | – | SYBR Green growth | asexual blood-stage parasites | 3D7 | 72 h | > 5000
CCn1cc(Cl)c2c(Cc3ccc(C(F)(F)F)nc3)n(C)nc2c1=O | parasite growth | – | – | 3D7 | – | 12.6

For quick reference, copied from above:
SMILES | observed | technique | cell line | strain | time | EC50 [nM]
Cc1noc(C)c1Nc1ccnc2ccc(-c3ccc(S(=O)(=O)N4CCOCC4)cc3)cc12 | parasite growth | SYBR Green | – | D6 | – | > 20000
